Published values of several laboratories.
Protocols differ between the studies behind these lines.

| SMILES | assay | system | conditions | how to read | quantity | result |
| --- | --- | --- | --- | --- | --- | --- |
| CC(=O)c1c(C)c2cnc(Nc3ccc(C4CCN(CCS(C)(=O)=O)CC4)cn3)nc2n(C2CCCC2)c1=O | – | HR+/HER2- advanced breast cancer patients | oral, dose not given | – | grade 3/4 leukopenia TEAE | 36.8 % patients |
| COc1cc2c(Oc3ccc4[nH]c(C)cc4c3F)ccnc2cc1OCC1(N)CC1 | – | paediatric refractory sarcoma patients | 12 mg | – | grade 3 bone pain | 0% |
| N[C@@H]1c2ccccc2OC12CCN(c1cnc3c(N4CCCc5ncccc54)n[nH]c3n1)CC2 | – | patients advanced metastatic solid tumours | oral, 60 mg once daily, pooled cohort | – | grade ≥3 peripheral oedema TEAE | 0% |
| COc1ccc(-c2c(-c3ccc(C#N)c(F)c3)nc(N3CCC(N)CC3)n(C)c2=O)cc1F | measured: maculo-papular rash | relapsed/refractory MZL patients | oral, 60 mg, dose expansion | – | grade 3-4 TRAE incidence | 0% |
| Cc1cc(C)c(CNC(=O)c2cc(Cl)c3c(c2C)O[C@@](C)([C@H]2CC[C@H](N(C)C)CC2)O3)c(=O)[nH]1 | – | relapsed/refractory NHL patients | dose not given, treatment-related TEAEs, safety set | – | grade 5 AST increased incidence | 0% |
| CC(C)n1c(C2CCNCC2)nc2c([N+](=O)[O-])c(Br)c(Br)cc21 | measured: Leukocytosis | AML patients | dose not given, all doses | – | grade ≥3 adverse events | 12% |
| Nc1nc2cc(-c3ccc4ncc(C(=O)N5CCOCC5)n4c3)ccc2o1 | – | advanced solid tumour patients | dose not given, all schedules | baseline: patients | grade ≥3 drug-related AEs | 27% |
| N#CCNC(=O)c1ccc(-c2ccnc(Nc3ccc(N4CCOCC4)cc3)n2)cc1 | – | healthy volunteers | oral, 200 mg, together with: midazolam 5 mg | – | grade 3 adverse events | 0% |
| CCN1[C@@H](C(=O)NC23CCC(C(=O)O)(CC2)CC3)[C@H](c2cccc(Cl)c2F)[C@]2(C(=O)Nc3cc(Cl)ccc32)C12CCCCC2 | – | patients with advanced solid tumours | oral, dose not given, all doses | – | grade ≥3 Anemia incidence | 23.8% |
| NC(=O)[C@H]1CCN(c2ncnc(N)c2F)C[C@@H]1N1CCC[C@@H](Nc2cc(Cl)cc(C(F)(F)F)c2)C1=O | – | B-cell malignancy patients | oral, 82 mg twice daily, dose | – | grade ≥3 leukopenia | 0% |
| CCN(Cc1nc2c(N)nc3cc(-c4cc[nH]n4)ccc3c2[nH]1)C(C)=O | – | cancer patients | intratumoral, dose not given, monotherapy | – | grade 2 Chills TRAE | 0 |

Repeated from above:
| SMILES | assay | system | conditions | how to read | quantity | result |
| --- | --- | --- | --- | --- | --- | --- |
| N#CCNC(=O)c1ccc(-c2ccnc(Nc3ccc(N4CCOCC4)cc3)n2)cc1 | – | healthy volunteers | oral, 200 mg, together with: midazolam 5 mg | – | grade 3 adverse events | 0% |
